Measurements of several laboratories.
Each numbered part is a random draw from the data of one study; scales do not carry over between parts.
UniProt O15294, sequence (whole entry, looked up): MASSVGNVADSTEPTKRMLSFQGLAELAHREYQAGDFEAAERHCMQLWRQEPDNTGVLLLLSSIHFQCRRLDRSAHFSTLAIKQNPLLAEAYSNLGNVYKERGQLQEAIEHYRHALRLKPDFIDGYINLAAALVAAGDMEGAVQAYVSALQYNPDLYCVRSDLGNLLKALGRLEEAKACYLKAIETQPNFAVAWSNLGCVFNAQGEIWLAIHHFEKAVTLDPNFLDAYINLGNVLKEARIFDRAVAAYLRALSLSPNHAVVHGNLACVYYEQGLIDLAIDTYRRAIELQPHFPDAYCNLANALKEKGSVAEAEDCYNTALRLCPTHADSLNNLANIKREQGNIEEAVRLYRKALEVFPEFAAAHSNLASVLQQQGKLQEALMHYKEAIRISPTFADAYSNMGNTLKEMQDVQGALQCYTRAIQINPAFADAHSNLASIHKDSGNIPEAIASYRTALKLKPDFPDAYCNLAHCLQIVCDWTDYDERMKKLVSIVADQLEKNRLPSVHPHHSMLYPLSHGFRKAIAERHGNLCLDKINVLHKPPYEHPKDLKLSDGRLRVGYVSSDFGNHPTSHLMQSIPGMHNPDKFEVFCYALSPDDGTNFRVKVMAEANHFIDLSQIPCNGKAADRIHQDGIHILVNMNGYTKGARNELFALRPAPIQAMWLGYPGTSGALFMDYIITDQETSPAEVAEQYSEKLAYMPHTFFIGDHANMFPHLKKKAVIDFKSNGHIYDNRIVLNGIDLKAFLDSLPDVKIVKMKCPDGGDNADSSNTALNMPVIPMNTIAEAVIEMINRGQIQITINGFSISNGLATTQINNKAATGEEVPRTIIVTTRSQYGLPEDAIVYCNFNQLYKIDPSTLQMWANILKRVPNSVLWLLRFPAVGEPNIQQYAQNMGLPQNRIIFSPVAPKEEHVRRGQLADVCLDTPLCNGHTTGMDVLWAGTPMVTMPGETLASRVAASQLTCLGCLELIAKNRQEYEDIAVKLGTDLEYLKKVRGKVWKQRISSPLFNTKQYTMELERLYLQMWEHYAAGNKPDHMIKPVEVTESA
UniProt Q9FGV1, sequence (whole entry, looked up): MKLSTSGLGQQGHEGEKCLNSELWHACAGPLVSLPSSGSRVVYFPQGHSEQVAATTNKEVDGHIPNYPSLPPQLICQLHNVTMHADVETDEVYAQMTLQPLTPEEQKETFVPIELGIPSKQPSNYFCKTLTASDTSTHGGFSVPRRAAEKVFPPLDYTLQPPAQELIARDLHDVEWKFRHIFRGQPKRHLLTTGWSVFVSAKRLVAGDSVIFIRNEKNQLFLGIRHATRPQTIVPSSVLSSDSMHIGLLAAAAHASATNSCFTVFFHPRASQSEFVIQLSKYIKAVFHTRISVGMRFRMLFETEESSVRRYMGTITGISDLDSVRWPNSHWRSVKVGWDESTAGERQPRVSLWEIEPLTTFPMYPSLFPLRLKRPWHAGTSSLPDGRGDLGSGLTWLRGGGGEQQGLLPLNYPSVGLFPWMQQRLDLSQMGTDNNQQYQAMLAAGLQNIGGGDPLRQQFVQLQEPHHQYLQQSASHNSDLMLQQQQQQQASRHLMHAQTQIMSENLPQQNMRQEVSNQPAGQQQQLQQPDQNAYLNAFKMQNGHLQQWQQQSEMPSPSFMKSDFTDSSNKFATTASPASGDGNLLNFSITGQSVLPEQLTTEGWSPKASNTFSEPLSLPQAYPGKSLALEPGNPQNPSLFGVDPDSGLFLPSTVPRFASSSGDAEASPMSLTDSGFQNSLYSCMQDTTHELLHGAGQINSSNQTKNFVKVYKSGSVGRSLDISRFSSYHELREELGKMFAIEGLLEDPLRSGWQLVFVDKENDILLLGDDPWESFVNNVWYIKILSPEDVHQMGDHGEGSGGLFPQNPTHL

Series 1
Target: RING finger protein unkempt homolog, zinc fingers 1-6, SBP tag (UNK, Homo sapiens, UniProt Q9C0B0, residues 30-357)
UniProt Q9C0B0, sequence (30-357, looked up): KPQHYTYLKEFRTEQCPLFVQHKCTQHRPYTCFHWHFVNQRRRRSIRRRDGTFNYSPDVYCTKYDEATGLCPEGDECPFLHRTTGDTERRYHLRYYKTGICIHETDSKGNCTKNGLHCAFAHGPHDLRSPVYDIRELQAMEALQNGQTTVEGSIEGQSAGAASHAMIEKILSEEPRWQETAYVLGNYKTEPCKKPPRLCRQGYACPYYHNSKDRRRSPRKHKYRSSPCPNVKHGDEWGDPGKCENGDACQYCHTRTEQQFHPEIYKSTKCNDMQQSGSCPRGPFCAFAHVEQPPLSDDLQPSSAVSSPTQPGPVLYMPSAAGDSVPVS
Method: RNA Bind-n-Seq
Form: RNA
Sample: in vitro
Concentration: 100 nM
Setting: RNA with constant flanks, vertebrate orthologous sites, ends assumed
Baseline: input RNA pool
Direction: higher = stronger binding
Constant ends, left off below: GGGAGUUCUACAGUCCGACGAUC … CAACAGAGGAUUGAGCAUCA
Oligonucleotide	bound/input enrichment
AUCCUUUCGUACUAUCCCUGGCCACAGCCGAGGGCCCGAUGUUUCACUGAGGACCUGCAUUUAAGACAUUUUUUAAAUUGCUGUACAGGAGGAGAUGCAUCUAAAAUAGUAUCUCAACGC	0.409 ratio
GUUGUGACCCAUUUAACAUACACAAAAAACUAGCCAAAAAAAAUUUGCAUGUAAUUGACUUAGAUGAUGCCACUUUUCUGAGUGCAAAAUUUGGAAGACAGCUUGUACCUGGUUGGAAAC	1.62 ratio
CAGCUGAUUCACUAAUUGGAAGAGCUGCCCAUAUAGCUGUUCUUGAUUCAGAAAUAUUUUUAGAAAAAUUCUUUCUGGUUGCUGCCCUCAAAUAUUUCCAGUAGGAUAAAAGCAUUGUUA	0.873 ratio
CAGCCAACUCCCUUAUCGGCCGGGCUGCUCACAUCGCCGUCCUCGACUCUGAGAUCUUCCUGGAGAAGUUCUUCCUUGUUGCAGGCCUCAAGUUCUUUCAGUAGAACUGCGACAGAUUCA	0.424 ratio
AGCAGUUAGGAUGGGCCAUUCCUCUGCAUUUCCCAUGAGGAGAAAAGCCCAAAUCGAUGACACACGUUUCACACAUCUGAUGAUGAUCUUUUUGUUUUCUGCUUUUGCGUAUGCAUCAAA	0.375 ratio
CUACUCCUGCUCCAGCAGGGGCGUGGGGCCGAAGCAUCCACCAGCGCUGCAAGGGGUCCACGGUAUUUUUUUUUUGGCUGCCUCAGUCCCCAGAGCCUUCAAGCAACAGUGGCGGUAGAU	0.555 ratio
ACAGAGGCACUUUCUCCUUUGGUCUUUCAUUGUAAGAAGAAAUGGACCCAUGCACAUUUAUAUAGCUUUCUAAUAGCAUUAAAACCAAUGCCUUUCUAGACUCCUAUUUUUGAUGUAUAU	0.492 ratio
CUCUAUGGGCCUCGCAGAGUUGAAAUAAUAGAAGAGGACAGUGAACAGUAACCUUCAUUUUAGUAUUUAUGCUUAGGUGUGAAAUAAAUGUUACUCGUUGAUCAUUUCUAUAAUCCAGAG	0.531 ratio

Series 2
Target: Interferon regulatory factor 7, full length, phosphomimetic (IRF7, Homo sapiens, UniProt Q92985, residues 1-503, S101K/S471D/S472D/S475D/S476D/S477D/S483D/S484D/S487D)
Method: protein-binding microarray
Form: double-stranded DNA, one strand shown
Sample: in vitro
Concentration: 250 nM
Setting: 60-bp whole probe
Added: salmon DNA 0.4 mg/ml
Baseline: random background probes
Direction: higher = stronger binding
Constant ends, left off below: GCCTAGCAC … GTCTTGATTCGCTTGACGCTGCTG
Construct (chain): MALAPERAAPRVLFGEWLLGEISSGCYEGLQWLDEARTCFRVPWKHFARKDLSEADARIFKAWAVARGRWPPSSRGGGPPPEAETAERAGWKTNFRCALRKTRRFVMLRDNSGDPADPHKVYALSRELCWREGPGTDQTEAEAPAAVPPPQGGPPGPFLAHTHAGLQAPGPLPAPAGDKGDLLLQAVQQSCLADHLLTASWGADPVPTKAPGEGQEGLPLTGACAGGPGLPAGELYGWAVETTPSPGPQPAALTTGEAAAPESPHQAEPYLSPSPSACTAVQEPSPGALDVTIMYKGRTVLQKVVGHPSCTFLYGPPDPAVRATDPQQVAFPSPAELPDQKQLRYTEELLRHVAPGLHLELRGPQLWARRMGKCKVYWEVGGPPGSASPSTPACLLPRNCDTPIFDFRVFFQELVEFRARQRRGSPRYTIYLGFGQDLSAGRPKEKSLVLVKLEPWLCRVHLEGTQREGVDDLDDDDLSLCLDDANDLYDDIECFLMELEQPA
Oligonucleotide	log fluorescence [z-score]
AACGGTTTCGACTATCGGGACGTGCTA	6.46
GAGACTCTAATATTGAGACTGTGCTAG	0.162
TTAGGTTTCGGGGATCGGTTAGTGCTA	2.43
TCAAGTCCCGAGAATGGTACTGTGCTA	0.0784
GACGATATCAGTATCGAAACGTGCTAG	0.644
TCAGGTATTTTTCTAAAACTGTGCTAG	0.162
GACGTTCTCAGACTGGAGACGTGCTAG	0.178
TCAGCTTTATGTGTAGGACTGTGCTAG	-0.328

Single results of other studies
B1: IAA33 (Arabidopsis thaliana, UniProt Q9FKM7); chain MNSFEPQSQDSLQRRFHQDNSTTQQPRDTTTPFIPKPASKNHNNSNSSSGAAGRSFQGFGLNVEDDLVSSVVPPVTVVLEGRSICQRISLDKHGSYQSLASALRQMFVDGADSTDDLDLSNAIPGHLIAYEDMENDLLLAGDLTWKDFVRVAKRIRILPVKGNTRQVKRNE
Substance	target or system	assay	test system	setting	scale	measurement	value
DDTGPFQPMYQIQII	OGT (Homo sapiens, UniProt O15294)	binding, phage display NGS	peptide	concentration not given	baseline: input library	enrichment fold change	54.4
B1 (IAA33)	ARF8 699-811 (Arabidopsis thaliana, UniProt Q9FGV1)	two-hybrid	–	–	baseline: out of 2 tests, higher = firmer interaction	positive tests	1
TCP1 (Homo sapiens, UniProt P17987)	CCT8 (Homo sapiens, UniProt P50990)	cross-linking MS	cells	added: BSPNO	–	cross-linked residues	K494 to K466
